Results gathered from unrelated publications.
Every numbered part comes from another study and shows a few of its results, in no order. Changes are numbered by the printed parent chain.

Sample 1 — method: protein binding microarray; molecule type: double-stranded DNA, one strand shown; sample: in vitro; tested at: not given; baseline: not given; direction: higher = stronger binding
Target: Histone acetyltransferase KAT6A, both winged helices, GST fusion (KAT6A, Homo sapiens, UniProt Q92794, residues 1-181)
Notes: 8-mer, flanks averaged, mean of 2 arrays, mostly near background
Residues (chain): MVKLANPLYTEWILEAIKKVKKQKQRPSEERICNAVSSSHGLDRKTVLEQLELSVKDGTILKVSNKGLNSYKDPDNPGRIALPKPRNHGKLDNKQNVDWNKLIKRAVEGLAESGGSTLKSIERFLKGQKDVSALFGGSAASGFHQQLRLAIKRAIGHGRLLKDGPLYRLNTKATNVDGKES
`CACAGGCA` gave an E-score of -0.196.
For `CTTGTAAC`, the E-score was 0.0267.
`ACATTAGG` gave an E-score of -0.175.
With `TTAAAAAA` the E-score was -0.122.
With `ACCGTGTC` the E-score was 0.238.
For `CGCCGCGC`, the E-score was 0.419.
The E-score of `ACACGGGA` is reported as 0.142.
`ATGCCAGA` has an E-score of -0.079.
`AGGGGTAG` gave an E-score of -0.281.
`CCAAGGCA` gave an E-score of -0.149.
`GGTTTAAC` gave an E-score of 0.0249.
The E-score of `TGTACCAA` is reported as 0.0109.

Sample 2 — method: universal PBM; molecule type: double-stranded DNA, one strand shown; sample: in vitro; tested at: not given; direction: higher = stronger binding
Target: Sal-like protein 4, full length isoform B (SALL4, Homo sapiens, UniProt Q9UJQ4-2, residues 1-616)
Notes: 8-mer, flanks averaged, mean of replicates
Residues (chain): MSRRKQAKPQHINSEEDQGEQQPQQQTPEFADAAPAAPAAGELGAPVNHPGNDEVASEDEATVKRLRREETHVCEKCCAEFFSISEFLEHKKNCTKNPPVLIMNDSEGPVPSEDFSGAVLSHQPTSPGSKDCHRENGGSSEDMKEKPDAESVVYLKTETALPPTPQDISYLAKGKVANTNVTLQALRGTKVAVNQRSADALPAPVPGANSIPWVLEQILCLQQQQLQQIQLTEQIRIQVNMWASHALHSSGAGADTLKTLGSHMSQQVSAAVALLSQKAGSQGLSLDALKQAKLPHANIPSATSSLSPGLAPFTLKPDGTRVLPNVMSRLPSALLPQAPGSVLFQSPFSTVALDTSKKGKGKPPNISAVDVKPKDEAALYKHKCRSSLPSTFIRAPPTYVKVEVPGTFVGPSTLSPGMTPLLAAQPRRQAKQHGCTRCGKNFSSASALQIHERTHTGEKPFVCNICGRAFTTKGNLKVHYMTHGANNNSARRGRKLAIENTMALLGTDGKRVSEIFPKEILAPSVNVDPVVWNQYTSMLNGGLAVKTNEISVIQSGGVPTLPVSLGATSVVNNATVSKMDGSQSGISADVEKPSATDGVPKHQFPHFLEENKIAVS
`GTAATGCA` gave an E-score of 0.134.
With `CGACAACG` the E-score was -0.0772.
`AAAAGGAT` gave an E-score of 0.184.
With `AGCAGTAA` the E-score was 0.125.
`GCGGACAC` has an E-score of -0.308.
`CGGGGGCA` gave an E-score of -0.165.
With `ACCACTTG` the E-score was 0.0167.
With `ATCATTAC` the E-score was 0.257.
For `ATAACCAA`, the E-score was 0.292.
The E-score of `ATCATGAC` is reported as 0.133.
`ATCGTCAC` has an E-score of 0.00937.
With `ACTCTTTG` the E-score was 0.0409.

Sample 3 — target: CCNF, cyclin fold, Cln2 fusion (human); method: yeast growth competition, sequencing; sample: yeast; notes: weak parent motif; baseline: not given; direction: higher = stronger binding
Starting sequence: PKN2 docking peptide (human); DSTVTKLDFDLEP
For `DSTVTKLDFALEP [D10A]`, “normalised enrichment score” read -0.318.
Under “normalised enrichment score”, `DSTVTKLDADLEP [F9A]` is recorded as -0.186.
Under “normalised enrichment score”, `DSTVTKLDFDLEA [P13A]` is recorded as 0.202.
`DSTVTKLDFDAEP [L11A]` — result for “normalised enrichment score”: -0.0585.
`ASTVTKLDFDLEP [D1A]` — result for “normalised enrichment score”: 0.492.
For `DSTVTKLAFDLEP [D8A]`, “normalised enrichment score” read -0.414.

Single results of other studies
With `PhoQ, residues 284 288 289 292 302 303 SASVAL` the fold induction was 1.34 (PhoP, residues 12 14 15 18 19 LYFRQ (Escherichia coli, UniProt P23836); Sort-seq, measured: YFP reporter; E. coli; PhoQ-PhoP variant library, together with: 10 µM Mg2+; baseline: high Mg2+ state, higher = stronger signaling).
